Published values gathered from unrelated publications.
Compare with care: the assays were run in different laboratories.
Cell line: Vero

Compound	effect on	technique	item	tested at	time	measurement	value
CC(C)(C)NC(=O)[C@H](Cc1c[nH]c2ccccc12)NC(=O)[C@@H]1CCCN1C(=O)OC(C)(C)C	cell morphology	microscopy			5 (unit not given)	minimum cytotoxic concentration	> 100 µM
Nc1ccn([C@@H]2O[C@](F)(CO)[C@@H](O)C2(F)F)c(=O)n1	cell morphology	microscopy			5 (unit not given)	minimum cytotoxic concentration	0.16 µM
C#CC[C@H](NC(=O)OC(C)(C)C)C(=O)N(Cc1ccccc1)Cc1cn(C)c2ccc(C(=O)OC)cc12	cell morphology	microscopy			5 (unit not given)	minimum cytotoxic concentration	100 µM
CO[C@]1(CO)O[C@@H](n2ccc(N)nc2=O)C(F)(F)[C@@H]1O	cell morphology	microscopy			5 (unit not given)	minimum cytotoxic concentration	> 100 µM
CC(C)(C)NC(=O)[C@H](Cc1c[nH]c2ccccc12)NC(=O)[C@H](Cc1ccccc1)NCc1ccc(-c2ccccc2)cc1	cell morphology	microscopy			5 (unit not given)	minimum cytotoxic concentration	> 100 µM
CCN(CCO)CCCC(C)Nc1ccnc2cc(Cl)ccc12 (stereo not shown)	cell morphology	microscopy			5 (unit not given)	minimum cytotoxic concentration	100 µM
COc1c(C)c2c(c(O)c1C/C=C(\C)CCC(=O)O)C(=O)OC2			cell morphology			minimal cytotoxic concentration	> 100 µM
NC(=S)N/N=C/c1ccc(-c2ccc(C(=O)O)c(O)c2)o1		MTT		concentration not given		cytotoxicity	not toxic
NC(=O)c1ncn([C@@H]2O[C@H](CO)[C@@H](O)[C@H]2O)n1			cell morphology			minimal cytotoxic concentration	> 250 µM
O=C(/C=C/C=C/c1ccc([N+](=O)[O-])cc1)c1ccc(Cl)cc1		MTT		up to 300 µg/mL	24 h	viability	> 75%

Excerpt of the above:
Compound	effect on	technique	item	tested at	time	measurement	value
NC(=O)c1ncn([C@@H]2O[C@H](CO)[C@@H](O)[C@H]2O)n1			cell morphology			minimal cytotoxic concentration	> 250 µM
